Assay results gathered from unrelated publications.
Numbered parts are unrelated; each lists some results of a single study. Substitutions count along the parent as printed.

Study 1
Target: CCNB2, cyclin fold, Cln2 fusion (human)
Method: yeast growth competition, sequencing
Sample: yeast
Setting: weak parent motif
Reference: not given
Direction: higher = stronger binding
Starting sequence: PKN2 docking peptide (human); VSAVRKLDFSDTM; partner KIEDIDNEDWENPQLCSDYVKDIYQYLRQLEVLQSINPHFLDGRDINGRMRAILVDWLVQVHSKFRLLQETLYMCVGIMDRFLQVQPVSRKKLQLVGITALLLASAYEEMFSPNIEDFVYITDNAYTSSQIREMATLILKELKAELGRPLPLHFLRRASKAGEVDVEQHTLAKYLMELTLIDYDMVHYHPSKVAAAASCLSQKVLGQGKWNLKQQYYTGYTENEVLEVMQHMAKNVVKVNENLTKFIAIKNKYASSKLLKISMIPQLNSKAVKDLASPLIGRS
For `VSALRKLDFSDTM [V4L]`, “normalised enrichment score” read 0.375.
Under “normalised enrichment score”, `VSAVRKLDFSDLM [T12L]` is recorded as 1.08.
Under “normalised enrichment score”, `VSMVRKLDFSDTM [A3M]` is recorded as 1.05.
Under “normalised enrichment score”, `VSAVRKLTFSDTM [D8T]` is recorded as -0.287.
Under “normalised enrichment score”, `VSAVDKLDFSDTM [R5D]` is recorded as -0.482.
`VSAVRKLDFSDNM [T12N]` — result for “normalised enrichment score”: 0.786.
`VSAVLKLDFSDTM [R5L]`: “normalised enrichment score” 0.0223.
`VSQVRKLDFSDTM [A3Q]`: “normalised enrichment score” 0.257.
`VSAVRKTDFSDTM [L7T]`: “normalised enrichment score” 0.221.
For `VSAVRKLDFSQTM [D11Q]`, “normalised enrichment score” read 0.235.
`VSEVRKLDFSDTM [A3E]`: “normalised enrichment score” 0.295.
`VSAVRKLDSSDTM [F9S]`: “normalised enrichment score” 0.278.
Under “normalised enrichment score”, `VSAGRKLDFSDTM [V4G]` is recorded as -0.166.

Study 2
Target: CREBL2, bZIP domain (human)
Method: DHFR protein complementation
Sample: yeast
Setting: single substitutions, most at no-binding floor
Reference: wild-type JUN-FOS pair
Direction: higher = stronger binding
Starting sequence: JUN, bZIP domain (human); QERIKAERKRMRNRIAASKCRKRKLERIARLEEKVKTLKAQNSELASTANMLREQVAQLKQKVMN; partner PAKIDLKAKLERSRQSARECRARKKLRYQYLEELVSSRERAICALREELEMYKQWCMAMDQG
`M51H` has a binding fitness of -1.56 natural log.
With `A46C` the binding fitness was -1.57 natural log.
`L45V` has a binding fitness of -1.41 natural log.
For `L52R`, the binding fitness was -1.49 natural log.
For `A46I`, the binding fitness was -1.51 natural log.
`Q41E` gave a binding fitness of -1.61 natural log.
With `N42M` the binding fitness was -1.48 natural log.
`L52Y` gave a binding fitness of -1.19 natural log.
`S47V` has a binding fitness of -1.48 natural log.
For `K39H`, the binding fitness was -1.57 natural log.
`V35G` gave a binding fitness of -1.49 natural log.

Study 3
Target: ABI1, truncated, D143A, DHFR fusion (Arabidopsis thaliana, UniProt P49597)
Method: DHFR PCA, dose-response
Sample: yeast
Setting: Hill fit, not affinity, not high confidence
With: (+)-ABA, dose series
Direction: lower = more sensitive
Starting sequence: PYL1, truncated, DHFR fusion (Arabidopsis thaliana, UniProt Q8VZS8); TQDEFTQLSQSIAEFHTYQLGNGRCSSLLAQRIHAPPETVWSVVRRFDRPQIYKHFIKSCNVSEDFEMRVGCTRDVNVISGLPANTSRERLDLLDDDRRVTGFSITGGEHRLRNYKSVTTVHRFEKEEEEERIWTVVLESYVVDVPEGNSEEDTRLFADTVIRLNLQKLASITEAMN
With `N149Y` the ABA EC50 was 262 µM.
With `N149F` the ABA EC50 was 316 µM.
`A158F` gave an ABA EC50 of 343 µM.
With `F47L` the ABA EC50 was 0.218 µM.
With `L169F` the ABA EC50 was 217 µM.
For `D48M`, the ABA EC50 was 361 µM.
`Y53D` has an ABA EC50 of 2.59 µM.
With `P50R` the ABA EC50 was 36.3 µM.
For `I105W`, the ABA EC50 was 20.1 µM.
`K54W` has an ABA EC50 of 27 µM.

Mixed results
With `PhoQ, residues 284 288 289 292 302 303 ASSHFY` the fold induction was 1.43 (PhoP, residues 12 14 15 18 19 SPWRL (Escherichia coli, UniProt P23836); Sort-seq, measured: YFP reporter; E. coli; PhoQ-PhoP variant library, with: 10 µM Mg2+; reference: high Mg2+ state, higher = stronger signaling).

For quick reference, copied from above (study 1):
Under “normalised enrichment score”, `VSAVRKLDFSDLM [T12L]` is recorded as 1.08.
Under “normalised enrichment score”, `VSMVRKLDFSDTM [A3M]` is recorded as 1.05.
